Measurements pooled from the literature.
Numbered parts are unrelated; each lists some results of a single study.

Study 1
Target: PABPC1L2, full length, GST fusion (mouse, UniProt A0ABA7IW68)
Technique: RNAcompete
Molecule type: RNA
Matrix: in vitro
Tested at: 20 nM
Notes: 7-mer, probes averaged, single round
Relative to: mean of 7-mers
Direction: higher = stronger binding
Construct (chain): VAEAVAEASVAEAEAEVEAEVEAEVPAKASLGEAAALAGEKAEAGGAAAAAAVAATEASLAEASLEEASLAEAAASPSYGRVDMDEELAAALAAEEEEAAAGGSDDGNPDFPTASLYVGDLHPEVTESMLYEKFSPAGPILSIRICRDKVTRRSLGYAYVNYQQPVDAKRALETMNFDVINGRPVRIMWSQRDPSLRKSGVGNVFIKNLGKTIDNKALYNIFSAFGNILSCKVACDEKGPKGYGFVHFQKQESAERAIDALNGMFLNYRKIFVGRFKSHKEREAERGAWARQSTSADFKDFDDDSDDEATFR
Oligonucleotide	7-mer Z-score
GGUUAGG	0.0787
AGUCUAG	-0.0772
GUGUAUG	-0.162
CCGGCCA	-0.367
GUAACGC	-0.157
ACUAGGA	0.104
CGAGCGU	-0.0718
GCGAGUU	-0.202
AUCCGAC	-0.267
AUGUUCU	-0.307
UGUCUCG	-0.431
UACCUGA	-0.233
CGGAUGA	0.0478
GGGGUGC	0.263
AAAAUUU	4.61
GUCGUUA	-0.416

Study 2
Target: Ras GTPase-activating protein-binding protein 1, RRM domain (G3BP1, Homo sapiens, UniProt Q13283)
Chain of UniProt Q13283 (whole entry, looked up): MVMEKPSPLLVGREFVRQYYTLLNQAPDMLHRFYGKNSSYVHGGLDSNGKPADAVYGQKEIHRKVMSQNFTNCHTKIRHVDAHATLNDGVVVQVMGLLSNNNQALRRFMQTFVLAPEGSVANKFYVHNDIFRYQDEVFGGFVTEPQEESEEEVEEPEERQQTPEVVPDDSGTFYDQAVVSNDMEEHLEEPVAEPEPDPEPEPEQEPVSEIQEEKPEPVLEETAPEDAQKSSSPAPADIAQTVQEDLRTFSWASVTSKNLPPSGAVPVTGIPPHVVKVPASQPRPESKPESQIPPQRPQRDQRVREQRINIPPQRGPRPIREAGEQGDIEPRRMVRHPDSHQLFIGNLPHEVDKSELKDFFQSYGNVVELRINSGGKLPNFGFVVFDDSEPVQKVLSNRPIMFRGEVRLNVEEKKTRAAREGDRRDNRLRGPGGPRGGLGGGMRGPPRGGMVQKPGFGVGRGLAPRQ
Technique: RNA Bind-n-Seq
Molecule type: RNA
Matrix: in vitro
Tested at: 1 µM
Notes: whole 134-nt RNA, ends assumed
With: 150 mM KCl
Relative to: input library
Direction: higher = stronger binding
Constant ends, left off below: GGGAGUUCUACAGUCCGACGAUC … UGGAAUUCUCGGGUGUCAAGG
Oligonucleotide	log2 enrichment
ACCAUGCAGGUGGGCAUCUUUGGGAAGUGGGGCAAGGGGGGGAUAGGGAGGGGGGUAACACUUUGGGAACACGUGGUCCCAGGUCGUUUC	0.953
ACCAUGCAGGUGGGCAUCUUUGGGAAGUGGGGCAAGUGGGGGAUAGGGAGGGGGGUAACACUUUGGGAACAGGUGGUCCCAGGUCGUUUC	-0.484
CACAGACAACACGCACCCACACAGACACAGAGGGAAGGGGUUGGGAUGGGUACAGGGUGCACAGCAGGGCGGGGUAGGACCCCAGCCCCU	-0.0615
CACAGACAACACGCACCCGCACAGACACAGAGGGAAGGGGUUGGGAUGGGGACAGGGUGCACAGCAGGGCGGGGUAGGACCCCAGCCCCU	-0.166
CUCAAGUCCUGUGCUACACAUCGUAUGUACCGAAUCGGAGGUUUUUUUGGUGGAAAGUAUUAUGUUACGCCGUUCGGAUCUGCACUUCCA	-0.277
GUCCUGUGCUACACAUCGUAUGUACCGAAUCGGGAAAAAAGGAAAAAAGGGAAAAAAGGAAAGUAUUAUGUUACGCCGUUCGGAUCUGCA	0.054
UGGCCCUGGUGGCAUGCGGGGAGGAAGAGGUGGCGUCAUGGAUCGUGGUGGUCCCGGUGGAAUGUUCAGAGGUGGCCGUGGUGGAGACAG	1.11
UCAAGUCCUGUGCUACACAUCGUAUGUACCGAAUCGGGAGGGAAAGGGUUUGGGAAAGUAUUAUGUUACGCCGUUCGGAUCUGCACUUCC	0.706
ACCAUGCAGGUGGGCAUCUUUGGGAAGUGGGGCAAGGGGGGGAUAGGGAGGGGGAAAACACUUUGGGAACAGGUGGUCCCAGGUCGUUUC	-0.348

Study 3
Target: Histone acetyltransferase KAT6A, both winged helices, GST fusion (KAT6A, Homo sapiens, UniProt Q92794, residues 1-181)
Technique: protein binding microarray
Molecule type: double-stranded DNA, one strand shown
Matrix: in vitro
Tested at: not given
Notes: 8-mer, flanks averaged, mean of 2 arrays, mostly near background
Relative to: not given
Direction: higher = stronger binding
Target sequence (chain): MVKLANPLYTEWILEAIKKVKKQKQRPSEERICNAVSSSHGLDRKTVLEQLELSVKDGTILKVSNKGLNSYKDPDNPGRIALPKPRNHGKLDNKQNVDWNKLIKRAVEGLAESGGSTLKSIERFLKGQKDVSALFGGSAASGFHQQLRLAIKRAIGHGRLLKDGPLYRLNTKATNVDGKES
Oligonucleotide	E-score
AAGATTTG	0.00238
ATAGGTCC	-0.0466
ACGTTTTG	-0.141
GAGGAGGA	-0.129
CGTCCTTA	0.0914
ACCTCATC	-0.186
CCTCGGAC	0.15
ACCGGTGA	0.217
CCTATACA	-0.182
CGAAGACA	0.0996
CGTTATAG	-0.0747
CCAGCTCA	-0.144
ACACAGTA	-0.0907
GGGTCGCA	0.152
CAGCTCTC	-0.26
CGGTCTAA	0.1
ACAAGACA	-0.0776
GGCTTGCA	-0.12

Study 4
Target: Sal-like protein 4, full length isoform B (SALL4, Homo sapiens, UniProt Q9UJQ4-2, residues 1-616)
Technique: universal PBM
Molecule type: double-stranded DNA, one strand shown
Matrix: in vitro
Tested at: not given
Notes: 8-mer, flanks averaged, mean of replicates
Direction: higher = stronger binding
Target sequence (chain): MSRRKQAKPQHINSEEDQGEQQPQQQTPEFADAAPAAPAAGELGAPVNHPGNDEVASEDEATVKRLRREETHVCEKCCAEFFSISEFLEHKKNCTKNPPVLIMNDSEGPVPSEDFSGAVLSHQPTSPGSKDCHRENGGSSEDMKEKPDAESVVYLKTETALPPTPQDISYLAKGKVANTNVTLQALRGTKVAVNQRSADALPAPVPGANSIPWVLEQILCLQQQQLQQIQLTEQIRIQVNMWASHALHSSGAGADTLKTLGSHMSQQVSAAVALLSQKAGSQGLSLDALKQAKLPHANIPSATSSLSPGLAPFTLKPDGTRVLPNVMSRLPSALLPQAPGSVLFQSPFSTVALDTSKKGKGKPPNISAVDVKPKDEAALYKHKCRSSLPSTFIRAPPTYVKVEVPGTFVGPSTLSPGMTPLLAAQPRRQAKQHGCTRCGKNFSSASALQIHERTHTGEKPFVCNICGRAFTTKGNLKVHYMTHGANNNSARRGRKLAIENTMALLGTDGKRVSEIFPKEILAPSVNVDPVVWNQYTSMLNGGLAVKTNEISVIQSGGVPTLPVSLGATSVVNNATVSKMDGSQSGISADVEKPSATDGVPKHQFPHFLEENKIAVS
Oligonucleotide	E-score
CGAACTGA	-0.0909
CCCATCAG	-0.295
GGGAAGAA	-0.0368
CCTCGAAC	-0.258
AGTTAGCC	-0.169
CCATTCTC	-0.0912
CTGGAGAA	-0.218
CACTTCGA	0.0221
AGGAACGA	-0.115
GATCCGCC	-0.162
GCTTCCCA	-0.0847
ACAACTCA	0.131
AAGTATGA	0.258
AGAATGAT	0.225
AGCCGGCA	-0.277
AGCATGAG	-0.0613
GACCAGTC	-0.21
CCTGATGC	-0.0337
CCTATCCC	-0.142
GCACTGGA	-0.255
CACTGTGA	-0.128
ATGTACAC	0.216
CCCAAGCA	0.0283
CCAGGAGA	-0.165
GACATATC	0.138

Study 5
Target: Centromere-binding protein 1, full length, N-terminal tag (CBF1, Saccharomyces cerevisiae, UniProt P17106, residues 1-351)
Chain of UniProt P17106 (whole entry, looked up): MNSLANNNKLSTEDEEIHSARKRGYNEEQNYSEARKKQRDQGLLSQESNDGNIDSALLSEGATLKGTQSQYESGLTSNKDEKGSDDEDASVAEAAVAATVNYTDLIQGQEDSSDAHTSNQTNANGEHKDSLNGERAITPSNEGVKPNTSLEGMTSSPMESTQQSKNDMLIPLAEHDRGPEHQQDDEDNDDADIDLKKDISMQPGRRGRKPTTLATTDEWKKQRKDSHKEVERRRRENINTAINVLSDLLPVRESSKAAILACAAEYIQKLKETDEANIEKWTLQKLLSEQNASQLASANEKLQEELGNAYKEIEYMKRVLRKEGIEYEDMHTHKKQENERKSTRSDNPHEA
Technique: protein-binding microarray
Molecule type: double-stranded DNA, one strand shown
Matrix: in vitro
Tested at: 0.8 µM
Notes: whole 60-bp probe, no competitor
Direction: higher = stronger binding
Constant ends, left off below: … GTCTTGATTCGCTTGACGCTGCTG
Oligonucleotide	fluorescence intensity [a.u.]
CTATCAAAAAGCCATCACGTGGATCCCCGAAAATTC	7140
GAATCAATAACGCACATGGTGGTGTACGGGTGTTAG	661
GAATGTCTGCAGCCACGTGCAAAGTACGGTCGTTAG	4630
GAAGATTTTGAACATCACGGTTGGTCAAGACCATAG	516
GAAAATCACAAGGATCAGGAGGAAAAGAAAAAATAG	610
GAATGTTGAAGATATTGCGTGAAAATGTGAAGATAG	633
GAATAATGAGGTGCTCACGTTTTGCAATGATGATAG	786
CTAAACTCTCGCAGTTGTCACGTGCAATTTGATTTC	14800
GAAACGTAGAAACGACATCAGTCGCTTTCGCTTTAG	485
CTAACTTAGGATGCTGATGTCACATAAAGTCAGTTC	552
CTAACACATCCCTAAACGAAGCCGCACAATCTTTTC	526
CTACTTGGAGGAGGTGGTGGAGGCGGAAGGAATTTC	496
TGTACGAAGCTATGTGGTGTCATTATAGTAGTTAGG	551
CTATTTTTTGCTACGAACGTGGCCCTTTTTATGTTC	549
GAAATTACCCATACAGGAGATATCTCCAACATATAG	495
GAAATTCCAGCACCACTCGTGCAAGACGTACCATAG	539
GAAGCTGGGTTATTAAACGTGGAACTTTGGAAATAG	574
CTATTTGCTTTCCCCCACCAGACATATATAAAGTTC	605
